Measured values gathered from unrelated publications.
Each numbered part is a random draw from the data of one study; scales do not carry over between parts.

Sample 1 — method: RNA Bind-n-Seq; form: RNA; sample: in vitro; tested at: not given; reference: input RNA pool; reading: higher = stronger binding
Target: RING finger protein unkempt homolog, zinc fingers 1-6, GST-SBP tag (UNK, Homo sapiens, UniProt Q9C0B0, residues 30-357)
Notes: RNA with constant flanks, human-mouse chimeric sites, ends assumed
Residues (chain): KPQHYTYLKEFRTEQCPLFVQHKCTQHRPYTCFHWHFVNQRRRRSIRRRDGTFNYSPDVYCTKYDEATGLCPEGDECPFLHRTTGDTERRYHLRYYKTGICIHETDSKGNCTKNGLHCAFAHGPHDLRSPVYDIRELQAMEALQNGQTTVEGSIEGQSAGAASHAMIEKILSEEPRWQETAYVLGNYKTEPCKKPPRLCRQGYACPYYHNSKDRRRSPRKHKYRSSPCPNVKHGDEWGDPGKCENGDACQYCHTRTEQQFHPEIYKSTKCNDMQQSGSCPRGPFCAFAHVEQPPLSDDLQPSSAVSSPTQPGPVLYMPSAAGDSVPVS
Strand	bound/input enrichment
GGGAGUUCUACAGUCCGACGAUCUUUGUAUUUAUGCUAAGCACACGUGCUGGUGGUCUGGGCAUCAAUCUUGCAACUGCUGAUGUAGUCAUUUUAUAUGACUCAGAUUGGAAUCCCCAAGUAGAUCUUCAGGCUAUGGACCGUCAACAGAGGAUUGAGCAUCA	0.238 ratio
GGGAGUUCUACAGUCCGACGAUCUCUGGUCACACUCGUGUGUAUGGUGUUUGCUUUGUGGACACUUCACUGGGCAAGUUUUUCAUCGGCCAGUUUUCGGAUGACCGCCACUGUUCCAGAUUUAGGACUCUAGUGGCACACUAUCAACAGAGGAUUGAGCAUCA	0.171 ratio
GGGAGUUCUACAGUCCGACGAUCCUGAAAAACACAGAUAUCAAAGUUGUUGACUUUGGAAGUGCAACGUAUGACGACGAACAUCACAGUACUUUGGUGUCCACAAGGCACUACAGAGCUCCCGAGGUCAUUUUGGCUUUAGGUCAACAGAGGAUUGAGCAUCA	0.143 ratio
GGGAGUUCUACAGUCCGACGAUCACUCAGAGAUUAUAUUCCCAAAGUGCUGGGAGUAAAGGUGUGGCCACCACACCUAACUUGAUGGAUAUAUAUUUUUUUUAAUAUGAAUCUUCCUGUUCGUCCAGGGAAGAAAGAUUUGUUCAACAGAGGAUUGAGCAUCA	0.996 ratio
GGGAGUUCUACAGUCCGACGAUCGCAGGAUCUUCUAAGUACCAGUGGGGCAUUAUGAAAUCCCUUGGGCUCUCUGAUGACGAGAUAGUAAAGUUUUCUGAAGCAGAGCACUGGCUUGAUUAUUUCCCACCACUGGCCGUUCAGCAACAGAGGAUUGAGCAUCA	0.16 ratio
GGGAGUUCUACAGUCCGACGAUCGGGGAGAAACCUUACGAAUGCGUUCAGUGUGGGAAAUCCUACAGUCAGAGCUCAAACCUCUUCAGACAUCAGAGACGACACAAUGCAGAAAAACUUCUGAAUGUUGUGAAGGUUUAAGAACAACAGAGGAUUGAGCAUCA	0.0875 ratio
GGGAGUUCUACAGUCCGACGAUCUGUGAACUGUCUCUUGAGAUCUAAAAAAAACAUGAUUUUUCCUGGCACAUAUUCCAAAGCAAAGACUUUGUUGCCUGCUGCUUAUUGUCUAAUUUACAGGGAUAUUUAAUUUUGUAAGGUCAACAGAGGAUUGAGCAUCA	0.116 ratio
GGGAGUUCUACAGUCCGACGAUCAAAGAACUACUGAGGCAAGGCAGCAAAUUUAGGAGAGACAUUUCAACAAUAUUGAUAGAGUUAGGAUUCCAAAUUAAAAAAAAAACUAAGACAUUAUACAUCAACAAAGCCAAUAUCUGGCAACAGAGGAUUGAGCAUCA	17.5 ratio
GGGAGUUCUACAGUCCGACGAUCCAGCGCCGAGGCCGCGGUUUCCCCCUGGGCCUCCCCAGCCGCCGCCAUGGGCAUCAAAUUUUUAGAAGUUAUCAAACCUUUCUGUGCAGUUCUACCAGAAAUUCAGAAACCGGAAAGGAACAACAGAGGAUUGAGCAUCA	1.75 ratio
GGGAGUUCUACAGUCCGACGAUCAUAGAUGAAAUUGAUGUGGACCAGGAAGGAAUUGCUGAAAUGAUCCUGGAUGAAAAUGCUAUUGCUCAGGUCCCACGCCCUGGCACAUCUUUGAAACUCCCUGGCACUAAUCAGACAGGACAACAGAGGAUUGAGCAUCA	0.397 ratio
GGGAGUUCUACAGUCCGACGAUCCGCUGGCCCAAGCUGAUGGACUCUGAUGGCCUCCAUCAAGGUAUUAUGUGUGCCUUCUCUUAGUCCCUGUUUUCGGGAUGUUAUGAAUCUCAGUACUGUUUGACAGAAGCACCAGCUUUGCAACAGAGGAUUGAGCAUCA	0.131 ratio

Sample 2 — method: aptamer microarray, sandwich; form: DNA with 2'F-ANA; sample: in vitro; tested at: 200 nM; together with: Cy3 exosite-II aptamer, 400 nM; reading: higher = stronger binding; strand: GGTTGGTGTGGTTGG
Target: Prothrombin, mature alpha-thrombin (F2, Homo sapiens, UniProt P00734)
Notes: whole 15-mer aptamer, many near background
Modification	mean fluorescence intensity
2'F-ANA at 1 2 4 5 6 9 11 12 13	85.1 a.u.
2'F-ANA at 2 3 4 5 7 10 12 14 15	56.3 a.u.
2'F-ANA at 1 3 5 7 12 14	45.5 a.u.
2'F-ANA at 1 2 3 5 7 8 10 15	47.3 a.u.
2'F-ANA at 1 6 10 13 15	56.7 a.u.
2'F-ANA at 1 3 5 8 10 12 14 15	50.4 a.u.
2'F-ANA at 1 3 4 5 8 12 13 14 15	46.6 a.u.
2'F-ANA at 2 5 7 8 9 10 11 12 14 15	59.6 a.u.
2'F-ANA at 1 2 5 6 7 11 13 14	48.2 a.u.
2'F-ANA at 2 5 7 9 10 11 12 15	50.8 a.u.
2'F-ANA at 6 8 14 15	189 a.u.
2'F-ANA at 2 5 6 10 11 15	51.1 a.u.
2'F-ANA at 3 4 5 6 7 8 13	115 a.u.
2'F-ANA at 3 8 9 11 14 15	598 a.u.
2'F-ANA at 1 2 4 5 6 9 10 11 12 14	53.5 a.u.
2'F-ANA at 1 2 5 6 8 10 12 13 14	48.2 a.u.
2'F-ANA at 4 6 7 9 10 12 13	79.9 a.u.
2'F-ANA at 2 4 5 7 9 10	51.5 a.u.
2'F-ANA at 2 4 8 10 12	136 a.u.
2'F-ANA at 2 3 10 12 13 15	403 a.u.
2'F-ANA at 4 5 7 11 13 15	49.9 a.u.

Sample 3 — method: protein binding microarray; form: double-stranded DNA, one strand shown; sample: in vitro; tested at: not given; reference: not given; reading: higher = stronger binding
Target: Histone acetyltransferase KAT6A, winged helix 2, GST fusion (KAT6A, Homo sapiens, UniProt Q92794, residues 85-181)
Notes: 8-mer, flanks averaged, mean of 2 arrays, mostly near background
Residues (chain): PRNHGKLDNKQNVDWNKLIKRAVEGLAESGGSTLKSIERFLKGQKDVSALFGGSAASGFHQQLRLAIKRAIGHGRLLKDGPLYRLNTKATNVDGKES
Strand	E-score
AACTTTAT	0.00775
CAGCCCCC	0.0287
AGCTTTCC	0.0918
GATTCATA	-0.146
ACTTGGCC	-0.0368
CCGGGACC	0.342
AGCAAGAC	0.124
ACGGGCCA	0.0659
ATCTTCGG	0.121
CTCTTGAC	-0.0965
CTCTCTGC	0.0312
AGCAATTA	0.0387
ACACCAGA	0.0482
AGGGGGAA	-0.0351
CGGTAGTA	-0.112
CCTCCCTA	-0.0663
CGTATTAC	-0.192
AACCCCTA	-0.225
AGGCCAAC	0.0674
GCCACACA	0.136
CACTTCCC	-0.0332
AGGGAATA	-0.0478
AATCTTTC	-0.0875
CTAGGTAC	-0.0601
GACGCAGC	0.0991

Sample 4 — method: RNA Bind-n-Seq; form: RNA; sample: in vitro; tested at: 365 nM; reference: no-protein control; reading: higher = stronger binding
Target: RNA binding protein fox-1 homolog 2, RRM domain, GST-SBP tag (RBFOX2, Homo sapiens, UniProt O43251-10, residues 100-194)
Notes: natural RNA segment, single round, ends assumed
Residues (chain): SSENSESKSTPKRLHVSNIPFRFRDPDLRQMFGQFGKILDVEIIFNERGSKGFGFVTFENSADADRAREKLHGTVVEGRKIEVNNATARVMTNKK
Strand	RBNS enrichment (R)
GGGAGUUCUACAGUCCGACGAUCCAGGAGGAUAGUUGUUCUGUCUUGGGAGACGGUUUCCAAAAACUCCGAGAGACUUUCUGCUAAUGGUUCAGGAGGCGGAAGAGGAGCUCCUGGCCUCCCAGGUCACGCCAUGGAAUUCUCGGGUGCCAA	0.387
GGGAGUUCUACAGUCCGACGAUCAUUCUUUGUAAAUGUCCACACCCUACCGCAAAGUCUGGGGAGUCUUCUGGCUGGAAUGCUGUUCACGUCUGCAUCCAGCCCUGGGAUCGGCCUUCGUGUAUGGUUUCACCUGGAAUUCUCGGGUGCCAA	0.383
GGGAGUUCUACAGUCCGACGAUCGUAUGAAACAAUGUACAAAUCAAUGUUUUGAAAAUAAUGAUCUCAGACUUUCUAAGUUAAAUUUUAAAAAUUUUGAUUGUUUGCCAUAUUGGGUGGGUUUACUCUUAGAAUGGAAUUCUCGGGUGCCAA	13.3
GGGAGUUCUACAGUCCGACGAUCUUGAUUCAGCCUGUUUGGCGUUUCCCAGAGUCAUCUGAUUGGACAGGCAUGGGUGCAAGGAAAAUUAGGGUACUCAACCUAAGUUCGGUUCCGAUGAAUUCUUAUCCCCUUGGAAUUCUCGGGUGCCAA	0.471
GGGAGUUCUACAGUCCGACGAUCGACCCUUCCAUCUCUCCUGGGACAGGCAGGAACCAGAGGGACCAGGGCUCAAAUCUUGUACUAUGUGGCUUUGACAGACUACUGGCUCCAUGCUGGGCUCCCGGUUCUCAUGGAAUUCUCGGGUGCCAA	0.308
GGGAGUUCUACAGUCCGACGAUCAGAGACCAAGCCCUGCUGCAGAUUCGUCAGGCCAGGUGAAAGGGCCAGGCAGUUGCAGCUGAUGAUGUAAAUAUUUUGUACAGUAGAUAAAUAAAUGUUUAAAAGAACUAUGGAAUUCUCGGGUGCCAA	0.602
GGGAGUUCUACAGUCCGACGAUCACAUAGUAAGCACUCAAUAAAUGGUAGUUACUUUUGUUGAGCUCAGCUGGUAGUUUGACCUCCGUUGGUGCAAUGCCAGAGAUGGGAUUGUCAGCCACCACACUGCCACCUGGAAUUCUCGGGUGCCAA	0.23
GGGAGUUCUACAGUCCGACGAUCGUUGUUGUUGUUGUUGUUUUUCCUUAAUUUGAAAUCAUCUUAUUUUUUAAGACAAAUGUGAAAAUGACCAAAUCACACCAAGCAACUAACUCAAAAAUUAGGAUGCAAGAUGGAAUUCUCGGGUGCCAA	0.42
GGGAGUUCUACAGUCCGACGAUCAAUAAGACUUUCCCUGCCAACCAGGACAGCCUGGACCAUGCCUGCCUGUUCACUGUUUCAGGCUGCUCAGCACACAUUGGGAGAGGUGGCCAUAUCCCAGAACACUACCUUGGAAUUCUCGGGUGCCAA	1.43

For quick reference, copied from above (sample 3):
Strand	E-score
AGCAATTA	0.0387
AGGGAATA	-0.0478
CGTATTAC	-0.192
ACTTGGCC	-0.0368
CTCTCTGC	0.0312
AGCTTTCC	0.0918
AGCAAGAC	0.124
GATTCATA	-0.146
AACCCCTA	-0.225
